Assay results from different studies.
A part holds a random share of what one study measured. Substitutions count along the parent as printed.

Set 1 — method: protein-binding microarray; form: double-stranded DNA, one strand shown; matrix: in vitro; concentration: not given; direction: higher = stronger binding
Target: Transcriptional repressor CTCF (CTCF, Homo sapiens, UniProt P49711, residues 1-727, full length assumed)
Notes: k-mer, scored over probes, only values ≥0.25
Target sequence (chain): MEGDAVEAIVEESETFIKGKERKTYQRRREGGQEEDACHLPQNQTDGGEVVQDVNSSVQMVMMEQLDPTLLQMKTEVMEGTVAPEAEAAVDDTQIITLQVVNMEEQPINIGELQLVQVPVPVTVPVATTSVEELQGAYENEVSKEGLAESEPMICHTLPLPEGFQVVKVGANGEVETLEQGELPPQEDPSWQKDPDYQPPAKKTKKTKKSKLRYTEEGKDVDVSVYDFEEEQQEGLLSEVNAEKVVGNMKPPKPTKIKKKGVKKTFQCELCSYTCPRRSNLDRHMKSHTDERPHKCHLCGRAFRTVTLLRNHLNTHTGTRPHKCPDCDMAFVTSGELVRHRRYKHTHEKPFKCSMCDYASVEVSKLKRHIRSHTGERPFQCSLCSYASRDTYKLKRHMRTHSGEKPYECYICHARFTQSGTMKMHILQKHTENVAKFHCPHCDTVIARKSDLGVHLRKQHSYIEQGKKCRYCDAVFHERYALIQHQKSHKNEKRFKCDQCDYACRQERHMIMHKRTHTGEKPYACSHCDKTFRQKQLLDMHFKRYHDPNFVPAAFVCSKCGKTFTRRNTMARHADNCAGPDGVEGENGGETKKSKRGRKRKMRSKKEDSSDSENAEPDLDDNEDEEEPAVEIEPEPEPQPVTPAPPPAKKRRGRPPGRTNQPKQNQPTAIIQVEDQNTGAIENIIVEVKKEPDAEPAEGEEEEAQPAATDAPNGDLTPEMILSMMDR
Sequence	E-score
TACGTAAA	0.329
TCTTATAA	0.267
ATATAAAC	0.41
AAAACGGC	0.345
GCGCACAA	0.405
AGATTATA	0.264
GTATGTTA	0.252
AATAAATT	0.308

Set 2 — method: aptamer microarray, sandwich; form: DNA with 2'F-ANA; matrix: in vitro; concentration: 200 nM; added: Cy3 exosite-II aptamer, 400 nM; direction: higher = stronger binding; sequence: GGTTGGTGTGGTTGG
Target: Prothrombin, mature alpha-thrombin (F2, Homo sapiens, UniProt P00734)
Notes: whole 15-mer aptamer, many near background
Modification	mean fluorescence intensity [a.u.]
2'F-ANA at 2 4 5 7 8 11 13 14 15	48.8
2'F-ANA at 1 2 6 11 13	106
2'F-ANA at 1 2 3 10 11 13 14 15	149
2'F-ANA at 1 4 5 6 8 9 11 13 14	50.3
2'F-ANA at 1 2 5 7 10 12 13 14	46.1
2'F-ANA at 4 11 12 14	132
2'F-ANA at 1 2 7 8 9 10 11 12 14	46.9
2'F-ANA at 3 4 6 8 9 13	425

Further values, each from its own experiment
P1: viral docking peptide; TSVRRALFTGGSD; partner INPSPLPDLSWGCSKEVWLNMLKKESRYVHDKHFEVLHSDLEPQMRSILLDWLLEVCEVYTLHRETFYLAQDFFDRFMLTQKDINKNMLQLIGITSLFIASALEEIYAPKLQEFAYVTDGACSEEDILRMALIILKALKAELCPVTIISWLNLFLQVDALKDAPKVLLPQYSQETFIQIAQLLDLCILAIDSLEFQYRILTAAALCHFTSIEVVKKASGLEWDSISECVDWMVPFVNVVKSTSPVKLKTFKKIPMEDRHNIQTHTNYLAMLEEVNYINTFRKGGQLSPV
Molecule	tested on	assay	test system	setting	how to read	measurement	value
RRP8 (Homo sapiens, UniProt O43159)	HNRNPA3 (Homo sapiens, UniProt P51991)	cross-linking MS	cell fractions	added: DSSO	–	cross-linked residues	S80 to K118
P1 T9P	CCNE2, cyclin fold, Cln2 fusion (human)	yeast growth competition, sequencing	yeast	strong parent motif	baseline: not given, higher = stronger binding	normalised enrichment score	2.65
ATP5PB (Homo sapiens, UniProt P24539)	ATP5PO (Homo sapiens, UniProt P48047)	cross-linking MS	cell fractions	added: DSSO	–	cross-linked residues	K221 to K199
MDH2 (Homo sapiens, UniProt P40926)	ACO2 (Homo sapiens, UniProt Q99798)	cross-linking MS	–	hits only	–	interaction screen	cross-linked
TIMM8A (Homo sapiens, UniProt O60220)	TIMM13 (Homo sapiens, UniProt Q9Y5L4)	cross-linking MS	cell fractions	added: DSSO	–	cross-linked residues	K50 to K64

For quick reference, copied from above (set 1):
Sequence	E-score
GTATGTTA	0.252
AATAAATT	0.308
